Experimental data gathered from unrelated publications.
B1: enzyme R85Q (Methanopyrus kandleri, UniProt Q8TWG5); chain MSKVAVIGATGRVGSTAAARLALLDCVNEVTLIARPKSVDKLRGLRRDILDSLAAAQKDAEITIGCERDDYVDADVIVMTAGIPQKPGQTRLDLTKDNAAIIKKYLEGVAEENPEAIVLVVTNPVDVLTYVALKVSGLPKNRVIGLGTHLDSMRFKVLIAKHFNVHMSEVHTRIIGEHGDTMVPVISSTSVGGIPVTRMPGWEDFDVEEAVREVKEAGQRIIETWGGSQFGPAQAITNLVRTILQDERRVLTVSAYLDGEIDGIRDVCIGVPARLGREGVLEIVPIELEEDEMRAFRRSVKVVKEATREAMEAISER
B2: proB (Escherichia coli, UniProt P0A7B5); chain MSDSQTLVVKLGTSVLTGGSRRLNRAHIVELVRQCAQLHAAGHRIVIVTSGAIAAGREHLGYPELPATIASKQLLAAVGQSRLIQLWEQLFSIYGIHVGQMLLTRADMEDRERFLNARDTLRALLDNNIVPVINENDAVATAEIKVGDNDNLSALAAILAGADKLLLLTDQKGLYTADPRSNPQAELIKDVYGIDDALRAIAGDSVSGLGTGGMSTKLQAADVACRAGIDTIIAAGSKPGVIGDVMEGISVGTLFHAQATPLENRKRWIFGAPPAGEITVDEGATAAILERGSSLLPKGIKSVTGNFSRGEVIRICNLEGRDIAHGVSRYNSDALRRIAGHHSQEIDAILGYEYGPVAVHRDDMITR
B3: ermE (Saccharopolyspora erythraea, UniProt P07287); chain MSSSDEQPRPRRRNQDRQHPNQNRPVLGRTERDRNRRQFGQNFLRDRKTIARIAETAELRPDLPVLEAGPGEGLLTRELADRARQVTSYEIDPRLAKSLREKLSGHPNIEVVNADFLTAEPPPEPFAFVGAIPYGITSAIVDWCLEAPTIETATMVTQLEFARKRTGDYGRWSRLTVMTWPLFEWEFVEKVDRRLFKPVPKVDSAIMRLRRRAEPLLEGAALERYESMVELCFTGVGGNIQASLLRKYPRRRVEAALDHAGVGGGAVVAYVRPEQWLRLFERLDQKNEPRGGQPQRGRR
B4: enzyme (Sorghum bicolor, UniProt C5XVQ1); chain MDGGDGGKEDGNNKQRLEWATMNLERGVVVGAGEKKGGNASRKPPIGIVRLFLACMVSGGIQYGWALQLSLLSPYSQTLGISHSYVSLTWICGPIAGFVVQPIVGYYSDRCTSKMGRRRPFILAGCIIICLSVMMIGFSADIGRRLGDTKEHCSTFTGSRWYAAAVYIVGFWFLDFANNTVQGPARAMMADLAAGHHGPNVGQAIFSLWMALGSVLGYLAGANAKWHEWLPWLKTAACCDACANLKGAFLTAVILIIVTMSVTLWLAGEELLDKANVDDASGGACSAFVDLFKSLKNLPPAMFSVLAVTAVTWLSWFPFIQYNTDWMGREIFHGEPQGAGGKADLYDAGVREGAVGLLFCSVLLGVTSFLIPKLCRKLTSRVVWSISNLMVFVLMTAMVALGIVSMKGYRPSLAASLSAGPDHRFKSGALAIFALIGIPQAVLFSVPWAVVSEVAAEEGGGQGLTIGVLNIAIVLPQLVIALSAGPIDGAFNKGNTPALGIGGVFALICAVLALVLLPKTRGVSNATVMAGGGH
B5: enzyme (Drosophila melanogaster, UniProt P18105); chain MEGAKLSAVRIAVREAPYRQFLGRREPSVVQFPPWSDGKSLIVDQNEFHFDHAFPATISQDEMYQALILPLVDKLLEGFQCTALAYGQTGTGKSYSMGMTPPGEILPEHLGILPRALGDIFERVTARQENNKDAIQVYASFIEIYNEKPFDLLGSTPHMPMVAARCQRCTCLPLHSQADLHHILELGTRNRRVRPTNMNSNSSRSHAIVTIHVKSKTHHSRMNIVDLAGSEGVRRTGHEGVARQEGVNINLGLLSINKVVMSMAAGHTVIPYRDSVLTTVLQASLTAQSYLTFLACISPHQCDLSETLSTLRFGTSAK

Molecule | tested on | test | system | conditions | scale | quantity | value
GAACGAACGAAC (dsDNA) | Fibroin-modulator-binding protein-1 99-193 (Bombyx mori, UniProt Q5FBS0) | ITC | double-stranded DNA, one strand shown | – | – | Kd | 6.31 µM
enzyme (Lactiplantibacillus plantarum, UniProt Q06115) | C[C@H](CCC(=O)N[C@@H](Cc1ccccc1)C(=O)O)[C@H]1CC[C@H]2[C@@H]3[C@H](O)C[C@@H]4C[C@H](O)CC[C@]4(C)[C@H]3C[C@H](O)[C@]12C | steady-state kinetics | – | pH 6.2, 37 °C | – | K0.5 | 1160 µM
enzyme (Listeria monocytogenes, UniProt A0A0H3GFM5) | Nc1ncnc2c1ncn2[C@H]1C[C@H](O)[C@@H](COP(=O)(O)OP(=O)(O)OP(=O)(O)O)O1 | steady-state kinetics | – | pH 7.5, 37 °C, KCl 500 mM, kcat per active site, positive cooperativity, together with: Ti(III) citrate | – | K0.5 | 3.8 µM
B1 (enzyme R85Q) | CC(=O)C(=O)O | steady-state kinetics | – | pH 6, 60 °C, together with: 0.3 mM NADH | – | K0.5 | 14000 µM
B2 (proB) | N[C@@H](CCC(=O)O)C(=O)O | steady-state kinetics | – | pH 7, 30 °C, Hill coefficient, apparent, together with: 10 mM ATP | – | K0.5 | 26000 µM
hemoglobin alpha | – | co-immunoprecipitation | human RBC membrane | unit not given, together with: Band 3 peptide 1-56 bait | reference: negative control | co-IP enrichment | 0.161
B3 (ermE) | C[S+](CC[C@H](N)C(=O)O)C[C@H]1O[C@@H](n2cnc3c(N)ncnc32)[C@H](O)[C@@H]1O | steady-state kinetics | – | pH 7.5 | – | K0.5 | 4.2 µM
GLAQWMARA | Jurkat T cells expressing 1G4 TCR | NFAT-eGFP reporter, flow cytometry | peptide | concentration not given, HLA-A*02:01 NY-ESO system | – | reporter activation | 0.24%
ptcA (Enterococcus faecalis, UniProt Q837U7) | NCCCCN | steady-state kinetics | – | pH 6.9, 22 °C, together with: carbamoyl phosphate 1.0 mM | – | K0.5 | 136 µM
B4 (enzyme) | OC[C@H]1O[C@@](CO)(O[C@H]2O[C@H](CO)[C@@H](O)[C@H](O)[C@H]2O)[C@@H](O)[C@@H]1O | steady-state kinetics | – | pH 5.6, not purified | – | K0.5 | 2300 µM
CLTSTVQLIM | HLA class I histocompatibility antigen, A alpha chain, allele A*01:01 (Homo sapiens, UniProt P04439) | conformational ELISA | peptide | concentration not given | reference: positive control peptide, direction not given | binding score | 4.7%
patZ (Escherichia coli, UniProt P76594) | CC(=O)SCCNC(=O)CCNC(=O)[C@H](O)C(C)(C)COP(=O)(O)OP(=O)(O)OC[C@H]1O[C@@H](n2cnc3c(N)ncnc32)[C@H](O)[C@@H]1OP(=O)(O)O | steady-state kinetics | – | pH 8, 37 °C | – | K0.5 | 4.2 µM
B5 (enzyme) | Nc1ncnc2c1ncn2[C@@H]1O[C@H](COP(=O)(O)OP(=O)(O)OP(=O)(O)O)[C@@H](O)[C@H]1O | steady-state kinetics | – | pH 6.8, 25 °C, together with: microtubules, Taxol, Mg2+ | – | K0.5 | 3.8 µM

Some of these lines once more:
Molecule | tested on | test | system | conditions | scale | quantity | value
B5 (enzyme) | Nc1ncnc2c1ncn2[C@@H]1O[C@H](COP(=O)(O)OP(=O)(O)OP(=O)(O)O)[C@@H](O)[C@H]1O | steady-state kinetics | – | pH 6.8, 25 °C, together with: microtubules, Taxol, Mg2+ | – | K0.5 | 3.8 µM
